Results collected from several papers.
Parts stem from different laboratories: compare values within a part only.

Series 1
Target: Transcription factor Sp1 (SP1, Homo sapiens, UniProt P08047, residues 1-785, full length assumed)
Sequence of UniProt P08047 (whole entry, looked up): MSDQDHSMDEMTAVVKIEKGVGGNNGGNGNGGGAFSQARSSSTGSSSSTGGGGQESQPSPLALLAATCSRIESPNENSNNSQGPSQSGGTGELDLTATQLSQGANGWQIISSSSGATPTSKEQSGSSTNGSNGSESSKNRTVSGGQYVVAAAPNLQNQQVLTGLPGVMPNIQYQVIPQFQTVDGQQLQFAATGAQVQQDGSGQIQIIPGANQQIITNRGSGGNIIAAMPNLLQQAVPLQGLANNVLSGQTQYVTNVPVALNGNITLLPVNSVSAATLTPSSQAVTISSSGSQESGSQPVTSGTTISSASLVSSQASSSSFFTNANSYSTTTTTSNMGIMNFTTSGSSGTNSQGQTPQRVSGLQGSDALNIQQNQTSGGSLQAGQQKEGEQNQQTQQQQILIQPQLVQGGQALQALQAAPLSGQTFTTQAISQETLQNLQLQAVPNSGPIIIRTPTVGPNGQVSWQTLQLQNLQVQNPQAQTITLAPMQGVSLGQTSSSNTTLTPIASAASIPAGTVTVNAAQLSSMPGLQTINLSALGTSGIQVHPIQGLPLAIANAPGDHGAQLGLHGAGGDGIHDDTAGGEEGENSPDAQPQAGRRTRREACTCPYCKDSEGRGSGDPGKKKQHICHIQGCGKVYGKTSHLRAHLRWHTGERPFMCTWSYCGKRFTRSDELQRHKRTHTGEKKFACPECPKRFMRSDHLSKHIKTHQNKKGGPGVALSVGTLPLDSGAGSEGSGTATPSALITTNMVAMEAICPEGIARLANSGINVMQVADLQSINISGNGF
Technique: protein-binding microarray
Molecule type: double-stranded DNA, one strand shown
Medium: in vitro
Tested at: not given
Setting: k-mer, scored over probes, only values ≥0.25
Reading: higher = stronger binding
Oligonucleotide	E-score
AACCGCCC	0.322
CCTCGCCC	0.256
GGCGGGTA	0.287
CAGGTGGG	0.258
ACGCCCAT	0.416
ATTATATA	0.282
GTGGGGTA	0.36
GGGGCGGA	0.491
AAGTGGGG	0.31
CCTTCCCC	0.363
CACGCCCA	0.467
AGGGGCTG	0.302
CTCCTCCC	0.413
ACCCCTTC	0.369
ACCATTAA	0.304
ACATAGAC	0.254
AACACCCC	0.355
ACCCTCCC	0.467
ACCCCTAC	0.294
ACCCCAGT	0.269
GCACGCCC	0.305
CCCCCGCC	0.372
ACGCATAT	0.262
ATGTGGGC	0.258
AACCCACC	0.284

Series 2
Target: Interferon regulatory factor 7, full length, phosphomimetic (IRF7, Homo sapiens, UniProt Q92985, residues 1-503, S101K/S471D/S472D/S475D/S476D/S477D/S483D/S484D/S487D)
Technique: protein-binding microarray
Molecule type: double-stranded DNA, one strand shown
Medium: in vitro
Tested at: 250 nM
Setting: 60-bp whole probe
With: salmon DNA 0.4 mg/ml
Reference: random background probes
Reading: higher = stronger binding
Shared flanks, not repeated: GCCTAGCAC … GTCTTGATTCGCTTGACGCTGCTG
Residues (chain): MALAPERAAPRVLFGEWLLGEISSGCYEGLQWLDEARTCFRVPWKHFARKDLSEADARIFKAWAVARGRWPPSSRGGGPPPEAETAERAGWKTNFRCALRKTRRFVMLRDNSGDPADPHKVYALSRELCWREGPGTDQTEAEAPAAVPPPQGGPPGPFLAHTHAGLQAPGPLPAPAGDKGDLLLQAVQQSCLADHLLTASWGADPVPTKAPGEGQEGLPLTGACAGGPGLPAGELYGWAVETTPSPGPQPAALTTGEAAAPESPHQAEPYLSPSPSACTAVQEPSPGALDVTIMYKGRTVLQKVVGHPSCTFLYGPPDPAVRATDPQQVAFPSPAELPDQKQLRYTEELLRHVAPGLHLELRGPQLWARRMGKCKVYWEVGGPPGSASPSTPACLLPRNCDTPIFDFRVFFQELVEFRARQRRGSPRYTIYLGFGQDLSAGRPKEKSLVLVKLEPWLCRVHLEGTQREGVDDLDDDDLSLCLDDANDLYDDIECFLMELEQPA
Oligonucleotide	log fluorescence [z-score]
TTAGGACTGCGACTGGGTTAGTGCTAG	-0.529
GTCGGTATCGGACTGGGGACGTGCTAG	0.15
CTAGGTATCGGTTTCGGTTAGTGCTAG	10.8
GACGCACTGAGTCTCGAGACGTGCTAG	0.419
TCATTTATGTACTCTCTAACTGTGCTA	1.56
TCAGCTTTGCTTCCTGCACTGTGCTAG	-0.512
GACGAACTGGGGTTTCGAGAAGTGCTA	0.369
TCAGGTATGCTCATGACACTGTGCTAG	-0.595
TTAGGAATCCTTATCCTTTAGTGCTAG	0.0966
TTACCCCATCCCCCTTTTCTGTGCTAG	0.559
GACGGTTTCCTTCTCCTGATGTGCTAG	2.55
TTAGGACTGGATTTCGGTTAGTGCTAG	0.817
ATAGATTTCAGTTTCGATTAGTGCTAG	9.52
TTAGGTTTCGACTATCGCTTAGTGCTA	5.17
TCAAATATGAGACTGGGACTGTGCTAG	0.0168
GGGCCCATCATTCCGACCCTGTGCTAG	0.864
TCATGTTTCCTCTTTCTACTGTGCTAG	3.45
GTCGGTCTCCTTCTCCTGACGTGCTAG	0.761
GACGATATCAGCTTCGAGACGTGCTAG	-0.0558
GACGGTATCGGGTATCGCGACGTGCTA	0.176
GAGGGACTGGGTTTCGGGACGTGCTAG	2.17
TCATACATTTATATCTTACTGTGCTAG	0.485
GTGTGCATCTATCTTAAATAGTGCTAG	-0.212
TTAGATCTCAGTCTGGATTAGTGCTAG	-0.229
TGGAGCCTAAGGTTTAGGCTCGTGCTA	-0.495

Series 3
Target: Histone acetyltransferase KAT6A, winged helix 1, GST fusion (KAT6A, Homo sapiens, UniProt Q92794, residues 1-85)
Technique: protein binding microarray
Molecule type: double-stranded DNA, one strand shown
Medium: in vitro
Tested at: not given
Setting: 8-mer, flanks averaged, mean of 2 arrays, mostly near background
Reference: not given
Reading: higher = stronger binding
Residues (chain): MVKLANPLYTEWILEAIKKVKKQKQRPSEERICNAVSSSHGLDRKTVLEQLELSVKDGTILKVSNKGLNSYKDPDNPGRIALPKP
Oligonucleotide	E-score
CGGTGTAC	0.258
CGATACCG	0.297
ACTTAGCA	-0.231
CCGCACAG	0.218
AACTGTTA	0.0439
CGACGGGA	0.442
CGGACGAA	0.18
CCAATATC	-0.198
GTCAGACA	-0.0237
CACCACTC	-0.0479
AAGCTGCC	-0.0364
AAATATCG	-0.0722
CGTATACA	-0.00674
AGCCGTAA	0.354
GCAGCGGA	0.112
TCCGGGCA	0.0758
AACTTTCC	-0.0987
ATATAAGG	-0.136
AATTGCGT	0.186
TACAACTA	-0.124
CATGGAAA	-0.224
AAACATCT	-0.0863
CCAATTAA	-0.0771
TCACTCGA	-0.275

Series 4
Target: RNA binding protein fox-1 homolog 2, RRM domain, GST-SBP tag (RBFOX2, Homo sapiens, UniProt O43251-10, residues 100-194)
Technique: RNA Bind-n-Seq
Molecule type: RNA
Medium: in vitro
Tested at: 365 nM
Setting: natural RNA segment, single round, ends assumed
Reference: no-protein control
Reading: higher = stronger binding
Shared flanks, not repeated: GGGAGUUCUACAGUCCGACGAUC … UGGAAUUCUCGGGUGCCAA
Residues (chain): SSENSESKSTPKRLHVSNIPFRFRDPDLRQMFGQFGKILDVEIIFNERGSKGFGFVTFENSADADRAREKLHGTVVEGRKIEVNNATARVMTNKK
Oligonucleotide	RBNS enrichment (R)
UGGUGCCACAAAAGUAUUUCUGCUUUUUAGCCCUUUCUCUGCACCUCAACAAGAGAUAAAAAAAAACUGUUGCUCAUACCCGUAUCUUACUGGGUUUGUUUUUAAUAUUA	0.438
UCUCCCUUAGUAACUUGAAGGAAGCUUUGCAAGGGUGUUUCUCUGGAAUGGGUUCUGUGUUUGAAAGCUGUUAGAACACUAACCAGCAGGUUACUUCUCUCCGCAGGGGC	0.609
AUGCCCAGCAAUCACCCUCCUCACUUCCUUGUCUAGAUGUAGAGGUCAGGCUGCUGAACCAGCCAACACAUGGGCUACUGCUGGGAAGCCUGGGCUGUUUUUUUUCUUAA	0.3
ACCUGCACUUAGAGGAAAUUUGAACAAGUUGGAAAAAAACAAUUUUUGUUUCAAUUCUAAGAAACACUUGCAGCUCUAGUAUUCACUUGAGUCUUCCUGUUUUUCCUGUA	0.375
CACAUACAGUUUUAUGCUCUUUUUUACUCAUUGAAAUGUCACGUACUGUCUGAUUGGCUUGUAGAAUUGUUAUAGACUGCCGUGCAUUAGCACAGAUUUUAAUUGUCAUG	0.958
GGACUCGGAGCACUGACCCCUGCGCUUGGAUUGCUAGACUCCUCUUCCUCCUGGACCCCAUCCUCUACCAUCCAAGCCCUGUCCCACUUUGGCCCUAUCCUCUCCAUUAG	0.367
GUAGAGUUUGGAAAUAAUUUAUGCAAGUGUUUGGUUCCCAUGUUUACAAUUUUUACAGCUUUCCUAGGAUUUUAAAAUGGAAAUGUCAAUAAAUGCUACGAAUCGGUGUG	4.03
UGAAUUUUGCAAAAUGGGAAAGUGGGCGCUUGCCCAAGGGCCAGGCUGCAUGGAUUCUCACAUCAGAGUUCUCUGGCCCUAGAAAGGCUUAGAAAAGGCGUAAGGGAACU	1.67
GAACUGCCUUCUUAUACUACAGAACAUGCAUUAGUGUGGGCUAUAUAGCUGUGGCUCAUGCUACCCAAUUCCAGAUUUCUUUGUCCUCUAAGAGUUGAUUGCUGUAUAUU	0.476
CGUAUGUAAGUAAUCUGGGGAAGAAGCAAAGAUCUGUUUCAUUCUUAGCCUCAGGCCUCAUGAGGGUCUCCACAGGGCCGGAGCUCAGGUUACACCACUCCUUCGUCCUU	0.243
ACUGCUGUUCUGGAGUAGGGUUCCAUCUCCCAUUUCUUCCAGCUCUGCCAAGUUGGCCCUCCCUGCUCUCGAGUGUUCCUUUCUUGAGACCUCAGGGUGCCCAGGUCCUG	0.404
UAAGGCCCUGUCAUUAAUUCCAUGUGUCAAUACUGCCCUGUAGUACACAGAGCAGACAAGAAAGAAGAGCCCUUGAAAACAAGGGAAUGAUUUUUGAGUCGUUAUCAAGC	0.256

Repeated from above (series 3):
Oligonucleotide	E-score
CGGTGTAC	0.258
CGATACCG	0.297
ACTTAGCA	-0.231
CCGCACAG	0.218
AACTGTTA	0.0439
CGACGGGA	0.442
CGGACGAA	0.18
CCAATATC	-0.198
GTCAGACA	-0.0237
